Measurements gathered from unrelated publications.
± gives the spread as reported.
pafA T79S: Alkaline phosphatase PafA (pafA, Elizabethkingia meningoseptica, UniProt Q9KJX5, T79S)
lasR: Transcriptional activator protein LasR (lasR, Pseudomonas aeruginosa, UniProt P25084)

CC(C)C[C@@H](N)C(=O)NCC(=O)N[C@H](C)C(=O)N[C@H](CO)C(=O)N[C@H](Cc1c[nH]c2ccccc12)C(=O)N[C@H](Cc1c[nH]cn1)C(=O)N[C@H](CCCNC(=N)N)C(=O)N1CCC[C@@H]1C(=O)N[C@H](CC(=O)O)C(=O)N[C@H](CCCCN)C(=O)N[C@H](CCCCN)C(=O)N[C@H](CCCNC(=N)N)C(=O)NCCCCCC(=O)N[C@@H](CCCCN)C(=O)N[C@@H](CCCNC(=N)N)C(=O)N[C@@H](CCCCN)C(=O)N[C@H](C(=O)N[C@@H](CC(N)=O)C(=O)N[C@@H](CC(N)=O)C(=O)N[C@@H](CC(N)=O)C(=O)N1CCC[C@H]1C(=O)N[C@@H](CCCNC(=N)N)C(=O)N[C@H](C(=O)N[C@@H](CS)C(N)=O)[C@@H](C)O)[C@@H](C)O — result for “binding affinity change”: “decreased” (CXCR4 (Homo sapiens, UniProt P61073, Y116A); 12G5 antibody binding; 200 nM, mutant Y116A; relative to: wild type).
N#CCNC(=O)c1cnccc1C(F)(F)F — result for enzyme activity: “no effect” (Nicotinamidase (Drosophila melanogaster, UniProt Q9VDU7); GDH-coupled; 100 µM).
COC(=O)C1C(OC(c2ccc(Cl)cc2)c2ccc(Cl)cc2)CC2CCC1N2C (single isomer, unassigned) — result for Ki: “inactive” (rat NMDA receptor PCP site; binding, radioligand displacement; inactive if below 75% at 10000 nM, added: [3H]TCP).
Under “association rate constant”, CN1C(=O)[C@H](Cc2ccccc2)N(C)C(=O)[C@@H]2[C@H]1CCN2Cc1cc(Cl)cc(Cl)c1 is recorded as 764 M⁻¹ s⁻¹ (NKG2-D type II integral membrane protein (KLRK1, Homo sapiens, UniProt P26718); binding, SPR).
CC[C@H](C)[C@@H]1NC(=O)[C@H](Cc2ccc(O)cc2)NC(=O)[C@@H](N)CSSC[C@@H](C(=O)N2CCC[C@H]2C(=O)N2CCC[C@H]2C(=O)NCC(N)=O)NC(=O)[C@H](CC(N)=O)NC(=O)[C@H](CCC(N)=O)NC1=O has an Emax of 1880 RFU (Oxytocin receptor (Macaca mulatta, UniProt P56494); membrane hyperpolarisation; CHO cells).
CCN(Cc1ccccc1)C(=O)CCc1nc(CN2CCN(C(=O)Cc3ccc(OC)c(OC)c3)CC2)no1 has an activation V1/2 of -53.5 mV (Voltage-gated potassium channel, KQT; KCNQ2(Kv7.2)/KCNQ3(Kv7.3) (KCNQ3/KCNQ2, Homo sapiens, UniProt O43525+O43526); potassium current, whole-cell patch clamp; CHO, stable; 10 µM).
With CC[C@H](C)[C@H](NC(=O)[C@H](CCCNC(=N)N)NC(=O)[C@H](CO)NC(=O)[C@@H](NC(=O)[C@H](CC(=O)O)NC(=O)[C@H](CC(=O)O)NC(=O)CCCCCNC(=O)c1ccc2c(c1)C(=O)OC21c2ccc(O)cc2Oc2cc(O)ccc21)[C@@H](C)O)C(=O)N[C@@H](CCC(=O)O)C(=O)N[C@@H](CCC(=O)O)C(=O)N[C@H](C(=O)N[C@@H](CC(=O)O)C(=O)O)C(C)C the affinity decrease was at least 12 fold (FKBP5 (Homo sapiens, UniProt Q13451); binding, fluorescence polarization; pH 7.4, full-length protein; relative to: wild-type Hsp90α tracer).
CC(C)C[C@H](NC(=O)[C@@H]1CCCN1C(=O)[C@H](CCCCN)NC(=O)c1ccc(O[C@@H]2O[C@H](CO)[C@H](O)[C@H](O)[C@H]2O)cc1)C(=O)NCCCC[C@H](NC(=O)[C@H](CC(C)C)NC(=O)[C@@H]1CCCN1C(=O)[C@H](CCCCN)NC(=O)c1ccc(O[C@@H]2O[C@H](CO)[C@H](O)[C@H](O)[C@H]2O)cc1)C(=O)N[C@@H](Cc1ccccc1)C(=O)N[C@@H](CS)C(N)=O: “relative potency per galactoside” 9 (lecA (Pseudomonas aeruginosa, UniProt Q05097); binding, isothermal titration calorimetry; divided by galactoside copies; relative to: monovalent galactoside KD over ligand KD).
With N[C@@H](Cc1c[nH]c2ccccc12)C(=O)O the binding stoichiometry was 12 ± 0.02 (Transcription attenuation protein MtrB, Δ71 truncation (mtrB, Geobacillus stearothermophilus, UniProt Q9X6J6); isothermal titration calorimetry; concentration not given, 25 °C).
For O=[N+]([O-])c1ccc(OP(=O)(O)O)cc1, “relative catalytic efficiency” read 2.5 (pafA T79S; Chryseobacterium meningosepticum; pH 8.0; relative to: wild type over mutant kcat/KM).
For Cc1cc(Nc2nc(C[C@@]3(C(=O)O)CCN(Cc4cccc(Cl)c4F)[C@H](C)C3)cc(C)c2F)[nH]n1, phosphorylation inhibition read “no inhibition” (Aurora kinase B (AURKB, Homo sapiens, UniProt Q96GD4); Western blot; NCI-H446; up to 2 µM).
With C[C@@]1(O)CC[C@H]2[C@H](CC[C@@H]3[C@@H]2CC[C@]2(C)[C@@H](C(=O)Cn4cccn4)CC[C@@H]32)C1 the PKA activation was 93.7 ± 10.6% (Membrane progesterone receptor epsilon (Paqr9, Mus musculus, UniProt Q6TCG2); pPKA/PKA immunoblot; MDA-MB-231 expressing Paqr9-GFP; 100 nM, 20 min; relative to: control).
CC(=O)NC(Cc1ccc(Br)c(Cl)c1)C(=O)N[C@@H](C)C(=O)N1CCC[C@H]1C(=O)N1CCC[C@H]1C(=O)N[C@@H](CCC(=O)O)C(=O)N[C@@H](Cc1c[nH]cn1)C(=O)N[C@@H](CO)C(=O)N[C@H](C(=O)N[C@@H](C)C(N)=O)[C@@H](C)OP(=O)(O)O (stereo partly shown) gave an inhibition of 0.82% (MAP4K1 (Homo sapiens, UniProt Q92918); enzyme activity, inhibitor; 10 µM).
Under “binding free energy”, CC[C@H](C)[C@H](NC(=O)CNC(=O)[C@H](CC(=O)O)NC(=O)[C@H](CC(C)C)NC(=O)[C@@H](NC(=O)[C@H](CC(N)=O)NC(=O)[C@H](CCC(N)=O)NC(=O)CNC(=O)[C@H](CC(C)C)NC(=O)[C@H](CCCCN)NC(=O)[C@H](CCC(=O)O)NC(=O)[C@@H](NC(=O)[C@H](CCCCN)NC(=O)[C@H](CCC(=O)O)NC(=O)[C@H](Cc1ccccc1)NC(=O)[C@H](CC(C)C)NC(=O)[C@H](CCCCN)NC(=O)[C@H](Cc1c[nH]c2ccccc12)NC(=O)[C@@H](N)CCC(=O)O)[C@@H](C)CC)[C@@H](C)CC)C(=O)N[C@H](C(=O)N[C@@H](CCCCN)C(=O)N[C@@H](CC(C)C)C(=O)NCC(=O)N1CCC[C@H]1C(=O)N[C@@H](CC(C)C)C(=O)N[C@@H](CC(C)C)C(=O)N[C@@H](C)C(=O)N[C@@H](CC(C)C)C(=O)N[C@@H](CC(C)C)C(=O)NCC(=O)N[C@@H](CCC(N)=O)C(=O)N[C@@H](CC(C)C)C(=O)N[C@H](C(=O)N[C@@H](CCC(N)=O)C(=O)N[C@H](C(=O)N[C@@H](C)C(=O)N[C@@H](CC(C)C)C(N)=O)[C@@H](C)CC)[C@@H](C)O)[C@@H](C)CC is recorded as -7 kcal/mol (POPC membrane; membrane binding, stopped-flow FRET; mole fraction units, room temperature).
For O=C(O)c1ccccc1-c1c2ccc(=O)c([As]3SCCS3)c-2oc2c([As]3SCCS3)c(O)ccc12, phosphatase activity read “no effect” (Ptpn11 (Mus musculus, UniProt P35235, C333P); E. coli lysate; up to 25 µM, C333P mutant, added: pNPP 10 mM; relative to: untreated).
With CNC(=S)N/N=C/c1ccc(OCc2ccccc2)cc1 the remaining activity was 91.1% (MAOA (Homo sapiens, UniProt P21397); enzyme activity, inhibitor, absorbance; 10 µM).
Under “relative catalytic efficiency”, COP(=O)(O)O is recorded as 22 (pafA T79S; Chryseobacterium meningosepticum; pH 8.0; relative to: wild type over mutant kcat/KM).
N[C@@H](Cc1ccc(C(=O)NCCc2ccc3ccccc3c2)cc1)C(=O)N1Cc2ccccc2C[C@H]1C(=O)N[C@@H](Cc1ccccc1)C(=O)N[C@@H](Cc1ccccc1)C(=O)O has a relative potency of 2 to 4 fold (Oprd1 (Mus musculus, UniProt P32300); smooth muscle contraction, agonist; mouse vas deferens; relative to: DPDPE).
With O=C(Cn1cc(-c2ccccc2)nn1)N[C@H]1CCOC1=O the activation was 5% (lasR; reporter gene, agonist; Escherichia coli, DH5α pJN105L/pSC11; 100 µM; relative to: OdDHL at same concentration).
For O[C@@H]1[C@@H](O)[C@H](O[C@@H]2OC[C@@H](O)[C@H](O)[C@H]2O)C[C@H]2N[C@@H]12, the kinact was 0.00767 s⁻¹ (endo-1,4-beta-xylanase (Aspergillus aculeatus, UniProt A0A1L9WG58); covalent inhibitor; pH 5.0, added: 4MU-β-D-xylobioside).
With CC(C)CC(NC(=O)C(NC(=O)NC(C(=O)O)C(C)C)C1CCNC(=N)N1)C(=O)NCCCNC(C(=O)O)C(OC1OC(CN)C(O)C1O)C1OC(n2ccc(=O)[nH]c2=O)C(O)C1O (stereo not shown) the binding enthalpy was -15 ± 3.5 kcal/mol (mraY (Aquifex aeolicus, UniProt O66465); isothermal titration calorimetry; concentration not given, wild type, added: Mg2+).
CN(C)/C=N/c1ccccc1C(F)(F)F — result for “STD NMR signal”: 0% (Amyloid-beta precursor protein, amyloid-beta 1-40 oligomers (APP, Homo sapiens, UniProt P05067); binding, STD NMR; highest STD).
With Cc1cccc([C@H](NC(=O)c2cnccc2-c2ccc(C(F)(F)F)cc2)C(=O)N(C)C)c1 the maximum inhibition was 98% (NKG2-D type II integral membrane protein, with ULBP6 (KLRK1, Homo sapiens, UniProt P26718); ligand binding, inhibitor, TR-FRET; HEK293 expressing NKG2D and DAP10; added: ULBP6-AF647; relative to: positive control).
For CC(C)P(=S)(NP(=S)(C(C)C)C(C)C)C(C)C, “ΔG of binding” read -4.12 kcal/mol (Alpha-amylase (Bacillus subtilis, UniProt P00691); fluorescence quenching; concentration not given, pH 6.8, 304 K).
With O=C(N[C@H]1CCOC1=O)c1ccc(-c2cn(-c3ccc4[nH]ccc4c3)nn2)cc1 the activation was 1% (lasR; reporter gene, agonist; Escherichia coli, DH5α pJN105L/pSC11; 100 µM; relative to: OdDHL at same concentration).
